# Assay results pooled from the literature.
# Lines come from different studies, so protocols differ. Numbers after ± are the reported error.
Structure (SMILES),test,test system,conditions,tissue uptake
CC[C@H](C)[C@H](NC(=O)[C@H](CCCCN)NC(=O)CNC(=O)[C@H](CC(C)C)NC(=O)[C@H](Cc1ccccc1)NC(=O)[C@H](CCCCN)NC(=O)[C@H](CO)NC(=O)[C@H](Cc1ccccc1)NC(=O)[C@H](Cc1c[nH]c2ccccc12)NC(=O)[C@H](CCC(N)=O)NC(=O)[C@@H](NC(=O)[C@H](Cc1ccccc1)NC(=O)CCCCCNC(=O)CN1CCN(CC(=O)O)CCN(CC(=O)O)CCN(CC(=O)O)CC1)C(C)C)C(=O)N[C@@H](CCC(=O)O)C(=O)N1CCC[C@H]1C(=O)N[C@@H](CC(=O)O)C(=O)N[C@H](C(=O)N[C@@H](CO)C(=O)N[C@@H](CCC(N)=O)C(=O)N[C@H](C(=O)N[C@@H](CCC(N)=O)C(=O)N[C@@H](CC(=O)O)C(=O)N1CCC[C@H]1C(=O)N[C@@H](CC(N)=O)C(=O)N[C@@H](CC(=O)O)C(=O)N[C@@H](CCC(N)=O)C(=O)N[C@@H](Cc1ccc(O)cc1)C(=O)N[C@@H](CCC(=O)O)C(=O)N1CCC[C@H]1C(=O)N[C@@H](Cc1ccccc1)C(=O)O)C(C)C)C(C)C [copper-64 labelled],,"C57BL/6 mice, male, naive, white fat",1 h,0.46 ± 0.09 %ID/g
O=C([O-])CN1CCN(CC(=O)O)C[C@H](Cc2ccc(NC(=S)NCCCCC(NC(=O)CCCCCCC(=O)NCCCC[C@H](NC(=O)N[C@@H](CCC(=O)O)C(=O)O)C(=O)O)C(=O)O)cc2)N(CC(=O)[O-])Cc2cccc(n2)C1.[64Cu+2] (stereo partly drawn),,"mice with PSMA+/- PC-3 tumours, PSMA- PC-3 flu tumour","2 h post-injection, same-day comparison",3.88 ± 0.62 %ID/g
CC[C@H](C)[C@H](NC(=O)[C@H](CCCNC(=N)N)NC(=O)[C@H](CCCCN)NC(=O)[C@H](Cc1ccc(O)cc1)NC(=O)[C@H](CC(=O)O)NC(=O)[C@H](C)NC(=O)CNC(=O)CCOCCOCCOCCNC(=O)CN1CCN(CC(=O)O)CCN(CC(=O)O)CCN(CC(=O)O)CC1)C(=O)N[C@H](C(=O)N[C@H](C(=O)N[C@@H](CCCCN)C(=O)N[C@H](C(=O)N[C@@H](CC(N)=O)C(N)=O)C(C)C)C(C)C)[C@@H](C)O [copper-64 labelled],ex vivo gamma counting,"C57BL/6J male mice, B16-F10 tumour, testis","intravenous, 1.85 MBq, 20 min",0.599 ± 0.016 %ID/g
C[C@H](O)[C@@H](NC(=O)[C@H]1CCCN1C(=O)[C@@H](CCCCN)NC(=O)[C@@H](CO)NC(=O)[C@@H](Cc1ccc(O)cc1)NC(=O)[C@@H](CC(N)=O)NC(=O)CCOCCOCCOCCNC(=O)CN1CCN(CC(=O)O)CCN(CC(=O)O)CCN(CC(=O)O)CC1)C(=O)N[C@H](CC(=O)O)C(=O)N[C@H](CCCNC(=N)N)C(=O)N[C@H](CCC(N)=O)C(=O)N[C@H](Cc1ccc(O)cc1)C(=O)N[C@H](Cc1c[nH]cn1)C(=O)N[C@H](Cc1ccccc1)C(N)=O [gallium-68 labelled],,"BALB/c nude mice U-87 MG tumour, pancreas","intravenous, 1.85 MBq, 1 h, radiolabelled",0.16 ± 0.03 %ID/g
CCCC[C@H]1C(=O)N(C)[C@@H](CCCC)C(=O)N[C@@H](CCCNC(=O)CN2CCN(CC(=O)O)CCN(CC(=O)O)CCN(CC(=O)O)CC2)C(=O)N[C@H](C(=O)NCC(N)=O)CSCC(=O)N[C@@H](Cc2ccc(O)cc2)C(=O)N(C)[C@@H](C)C(=O)N[C@@H](CC(N)=O)C(=O)N2CCC[C@H]2C(=O)N[C@@H](Cc2c[nH]cn2)C(=O)N[C@@H](CC(C)C)C(=O)N(C)CC(=O)N[C@@H](Cc2c[nH]c3ccccc23)C(=O)N[C@@H](CO)C(=O)N[C@@H](Cc2c[nH]c3ccccc23)C(=O)N1C [gallium-68 labelled],,"NOD/SCID mice, CHO-hPD-L1 xenograft, bone","60 min, atezolizumab 10 mg/kg pretreatment",2.42 ± 0.62 %ID/g
CSCC[C@H](NC(=O)CNC(=O)[C@H](CCCCN)NC(=O)[C@H](CC(C)C)NC(=O)[C@@H]1CCCN1C(=O)[C@H](CO)NC(=O)[C@H](Cc1c[nH]cn1)NC(=O)[C@H](Cc1c[nH]c2ccccc12)NC(=O)[C@H](CCCNC(=N)N)NC(=O)[C@H](CC(C)C)NC(=O)[C@H](CCCNC(=N)N)NC(=O)[C@H](Cc1c[nH]c2ccccc12)NC(=O)[C@H](CS)NC(=O)CCCCCNC(=O)CN1CCN(CC(=O)O)CCN(CC(=O)O)CCN(CC(=O)O)CC1)C(=O)O [copper-64 labelled],PET imaging,"BALB/c nude mice, kidney","intravenous, dose not given, 4 h, Huh-7 tumour-bearing",11 ± 1.31 %ID/g
CC[C@H](C)[C@H](NC(=O)[C@H](CCCNC(=N)N)NC(=O)[C@H](CCCCN)NC(=O)[C@H](Cc1ccc(O)cc1)NC(=O)[C@H](CC(=O)O)NC(=O)[C@H](C)NC(=O)CNC(=O)CCOCCOCCOCCNC(=O)CN1CCN(CC(=O)O)CCN(CC(=O)O)CCN(CC(=O)O)CC1)C(=O)N[C@H](C(=O)N[C@@H](CC(C)C)C(=O)N[C@@H](CCCCN)C(=O)N[C@H](C(=O)N[C@@H](CC(N)=O)C(N)=O)C(C)C)[C@@H](C)O [copper-64 labelled],ex vivo gamma counting,"C57BL/6J male mice, B16-F10 tumour, bone","intravenous, 1.85 MBq, 5 min",1.26 ± 0.126 %ID/g
[2H]C([2H])([18F])[C@]([2H])(N)C(=O)O,PET,"athymic nude mice, U-87 MG, muscle","dose not given, 20 min post-injection",1.21 ± 0.1 %ID/cc
CC(C)C[C@@H](NC(=O)[C@@H](CCCNC(=N)N)NC(=O)[C@@H](Cc1c[nH]cn1)NC(=O)[C@@H](Cc1c[nH]c2ccccc12)NC(=O)[C@@H](Cc1c[nH]cn1)NC(=O)[C@@H](Cc1ccccc1)NC(=O)[C@H](NC(=O)[C@@H](Cc1ccc(O)cc1)NC(=O)CNC(=O)CNC(=O)CCOCCOCCOCCNC(=O)CN1CCN(CC(=O)O)CCN(CC(=O)O)CC1)[C@H](C)O)C(=O)N[C@H](CC(N)=O)C(=O)N1CCC[C@@H]1C(=O)O [gallium-68 labelled],,"C57BL/6 mice, male, stomach","intravenous, 1.85 MBq, 60 min, together with: GP12 blocking",0.91 ± 0.46 %ID/g

# For quick reference, copied from above:
Structure (SMILES),test,test system,conditions,tissue uptake
CC[C@H](C)[C@H](NC(=O)[C@H](CCCNC(=N)N)NC(=O)[C@H](CCCCN)NC(=O)[C@H](Cc1ccc(O)cc1)NC(=O)[C@H](CC(=O)O)NC(=O)[C@H](C)NC(=O)CNC(=O)CCOCCOCCOCCNC(=O)CN1CCN(CC(=O)O)CCN(CC(=O)O)CCN(CC(=O)O)CC1)C(=O)N[C@H](C(=O)N[C@@H](CC(C)C)C(=O)N[C@@H](CCCCN)C(=O)N[C@H](C(=O)N[C@@H](CC(N)=O)C(N)=O)C(C)C)[C@@H](C)O [copper-64 labelled],ex vivo gamma counting,"C57BL/6J male mice, B16-F10 tumour, bone","intravenous, 1.85 MBq, 5 min",1.26 ± 0.126 %ID/g
